Published values from different studies.
Each line is one published result; not all experiments were run side by side. Several values in a cell are separate wells, animals, samples, runs or records. Numbers after ± are the reported error.
MAPK8: Mitogen-activated protein kinase 8 (MAPK8, Homo sapiens, UniProt P45983)
MAPK14: Mitogen-activated protein kinase 14 (MAPK14, Homo sapiens, UniProt Q16539)
Bcl-2-related protein A1 C113S/P104K: Bcl-2-related protein A1 (Mus musculus, UniProt Q07440, C113S/P104K)
Sigmar1: Sigma non-opioid intracellular receptor 1 (Sigmar1, Rattus norvegicus, UniProt Q9R0C9)
PRKCD: Protein kinase C delta type (PRKCD, Homo sapiens, UniProt Q05655)
Pick1 PDZ domain: PRKCA-binding protein, PDZ domain (Pick1, Rattus norvegicus, UniProt Q9EP80)
FOLH1: Glutamate carboxypeptidase 2 (FOLH1, Homo sapiens, UniProt Q04609)

The chains behind the UniProt entries cited, without tags or fusion partners. Where a name states a change or a piece, a line headed by the entry shows the natural chain unless it says otherwise. Residues count along the entry.
UniProt P45983, whole entry: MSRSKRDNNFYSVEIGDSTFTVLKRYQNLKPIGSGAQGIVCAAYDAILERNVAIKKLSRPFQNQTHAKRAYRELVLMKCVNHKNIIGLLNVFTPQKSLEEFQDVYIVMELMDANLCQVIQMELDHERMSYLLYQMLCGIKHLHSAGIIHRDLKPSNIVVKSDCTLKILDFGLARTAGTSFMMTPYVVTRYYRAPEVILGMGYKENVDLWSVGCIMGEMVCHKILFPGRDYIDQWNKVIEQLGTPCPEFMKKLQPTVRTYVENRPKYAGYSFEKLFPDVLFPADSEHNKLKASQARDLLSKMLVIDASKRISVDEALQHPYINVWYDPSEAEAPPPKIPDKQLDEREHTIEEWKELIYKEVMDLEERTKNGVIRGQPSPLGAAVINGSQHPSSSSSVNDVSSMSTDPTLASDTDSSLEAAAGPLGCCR
UniProt P45983, 1-384 isoform 3: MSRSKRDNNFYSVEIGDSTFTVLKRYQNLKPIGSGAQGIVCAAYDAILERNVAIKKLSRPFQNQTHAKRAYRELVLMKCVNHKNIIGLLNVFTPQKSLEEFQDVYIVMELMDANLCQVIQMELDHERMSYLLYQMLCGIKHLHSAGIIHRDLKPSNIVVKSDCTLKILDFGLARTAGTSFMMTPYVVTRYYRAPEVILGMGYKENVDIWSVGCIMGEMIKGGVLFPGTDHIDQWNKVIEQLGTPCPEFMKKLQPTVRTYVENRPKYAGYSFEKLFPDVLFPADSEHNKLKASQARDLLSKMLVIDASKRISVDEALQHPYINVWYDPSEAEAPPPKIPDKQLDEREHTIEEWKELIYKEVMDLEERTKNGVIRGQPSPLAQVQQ
UniProt Q16539, whole entry: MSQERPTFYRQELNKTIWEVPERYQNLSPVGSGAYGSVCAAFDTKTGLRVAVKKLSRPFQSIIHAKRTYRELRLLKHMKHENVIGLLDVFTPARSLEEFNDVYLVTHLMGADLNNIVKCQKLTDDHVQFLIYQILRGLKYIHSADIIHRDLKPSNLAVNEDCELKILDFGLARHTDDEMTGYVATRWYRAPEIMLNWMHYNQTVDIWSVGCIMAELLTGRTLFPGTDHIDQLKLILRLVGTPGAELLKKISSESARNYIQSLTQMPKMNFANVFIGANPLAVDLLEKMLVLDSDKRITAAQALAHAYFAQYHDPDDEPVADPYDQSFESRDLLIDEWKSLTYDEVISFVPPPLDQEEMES
UniProt Q9R0C9, whole entry: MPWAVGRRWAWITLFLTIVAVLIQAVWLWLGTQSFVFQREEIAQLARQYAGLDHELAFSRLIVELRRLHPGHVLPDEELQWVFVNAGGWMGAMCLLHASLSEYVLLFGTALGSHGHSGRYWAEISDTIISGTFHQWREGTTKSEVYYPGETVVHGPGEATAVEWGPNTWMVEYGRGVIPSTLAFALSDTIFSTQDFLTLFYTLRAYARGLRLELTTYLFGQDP
UniProt Q05655, whole entry: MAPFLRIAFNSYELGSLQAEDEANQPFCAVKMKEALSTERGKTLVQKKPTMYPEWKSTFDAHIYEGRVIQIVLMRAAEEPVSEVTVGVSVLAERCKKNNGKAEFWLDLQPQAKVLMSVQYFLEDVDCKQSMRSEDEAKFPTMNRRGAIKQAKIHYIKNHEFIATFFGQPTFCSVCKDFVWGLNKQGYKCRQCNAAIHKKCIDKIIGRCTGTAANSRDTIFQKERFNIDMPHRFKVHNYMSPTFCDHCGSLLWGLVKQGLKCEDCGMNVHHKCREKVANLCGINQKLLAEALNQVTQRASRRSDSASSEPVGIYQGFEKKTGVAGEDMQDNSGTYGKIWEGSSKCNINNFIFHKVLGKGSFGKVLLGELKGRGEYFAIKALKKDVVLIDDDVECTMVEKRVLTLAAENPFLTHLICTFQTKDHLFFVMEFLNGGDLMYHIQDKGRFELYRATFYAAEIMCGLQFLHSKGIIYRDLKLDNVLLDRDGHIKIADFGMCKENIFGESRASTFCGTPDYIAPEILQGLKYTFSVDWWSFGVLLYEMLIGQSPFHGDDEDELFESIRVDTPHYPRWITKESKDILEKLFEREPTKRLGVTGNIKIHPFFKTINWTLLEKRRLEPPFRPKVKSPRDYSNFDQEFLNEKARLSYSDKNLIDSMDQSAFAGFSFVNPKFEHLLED
UniProt Q9EP80, whole entry: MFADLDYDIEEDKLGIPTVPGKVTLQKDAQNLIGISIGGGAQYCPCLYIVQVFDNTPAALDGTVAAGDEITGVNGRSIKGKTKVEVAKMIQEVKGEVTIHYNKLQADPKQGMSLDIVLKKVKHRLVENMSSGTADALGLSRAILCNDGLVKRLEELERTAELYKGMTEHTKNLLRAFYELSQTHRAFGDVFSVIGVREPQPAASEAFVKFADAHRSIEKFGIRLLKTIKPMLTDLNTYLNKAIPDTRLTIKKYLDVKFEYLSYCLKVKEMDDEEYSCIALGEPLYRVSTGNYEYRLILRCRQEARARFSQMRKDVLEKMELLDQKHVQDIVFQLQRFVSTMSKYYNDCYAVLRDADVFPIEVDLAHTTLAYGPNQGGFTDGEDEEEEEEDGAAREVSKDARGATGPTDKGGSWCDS
UniProt P42260, 32-908 limits assumed: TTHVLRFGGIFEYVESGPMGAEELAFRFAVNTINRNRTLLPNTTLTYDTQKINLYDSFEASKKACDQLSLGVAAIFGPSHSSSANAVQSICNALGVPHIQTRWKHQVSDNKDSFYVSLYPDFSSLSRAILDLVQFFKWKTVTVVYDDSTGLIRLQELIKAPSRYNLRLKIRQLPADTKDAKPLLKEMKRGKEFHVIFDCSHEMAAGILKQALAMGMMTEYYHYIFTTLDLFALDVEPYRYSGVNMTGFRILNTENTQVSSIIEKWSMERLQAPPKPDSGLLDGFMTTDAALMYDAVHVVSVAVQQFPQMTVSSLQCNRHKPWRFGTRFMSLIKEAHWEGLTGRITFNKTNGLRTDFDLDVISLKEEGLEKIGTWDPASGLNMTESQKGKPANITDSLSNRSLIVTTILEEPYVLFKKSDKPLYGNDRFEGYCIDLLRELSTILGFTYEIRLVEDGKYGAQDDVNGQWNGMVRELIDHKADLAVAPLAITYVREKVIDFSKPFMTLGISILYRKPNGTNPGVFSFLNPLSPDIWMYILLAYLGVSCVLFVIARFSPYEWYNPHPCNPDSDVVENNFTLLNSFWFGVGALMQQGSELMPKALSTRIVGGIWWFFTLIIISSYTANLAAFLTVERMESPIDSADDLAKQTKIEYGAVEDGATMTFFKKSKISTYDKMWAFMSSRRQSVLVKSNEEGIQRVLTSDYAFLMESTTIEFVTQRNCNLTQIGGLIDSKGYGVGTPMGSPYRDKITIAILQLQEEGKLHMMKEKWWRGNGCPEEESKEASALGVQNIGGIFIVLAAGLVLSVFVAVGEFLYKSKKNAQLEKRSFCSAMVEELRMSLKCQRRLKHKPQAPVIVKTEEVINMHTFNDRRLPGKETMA
UniProt P42264, 32-919 limits assumed: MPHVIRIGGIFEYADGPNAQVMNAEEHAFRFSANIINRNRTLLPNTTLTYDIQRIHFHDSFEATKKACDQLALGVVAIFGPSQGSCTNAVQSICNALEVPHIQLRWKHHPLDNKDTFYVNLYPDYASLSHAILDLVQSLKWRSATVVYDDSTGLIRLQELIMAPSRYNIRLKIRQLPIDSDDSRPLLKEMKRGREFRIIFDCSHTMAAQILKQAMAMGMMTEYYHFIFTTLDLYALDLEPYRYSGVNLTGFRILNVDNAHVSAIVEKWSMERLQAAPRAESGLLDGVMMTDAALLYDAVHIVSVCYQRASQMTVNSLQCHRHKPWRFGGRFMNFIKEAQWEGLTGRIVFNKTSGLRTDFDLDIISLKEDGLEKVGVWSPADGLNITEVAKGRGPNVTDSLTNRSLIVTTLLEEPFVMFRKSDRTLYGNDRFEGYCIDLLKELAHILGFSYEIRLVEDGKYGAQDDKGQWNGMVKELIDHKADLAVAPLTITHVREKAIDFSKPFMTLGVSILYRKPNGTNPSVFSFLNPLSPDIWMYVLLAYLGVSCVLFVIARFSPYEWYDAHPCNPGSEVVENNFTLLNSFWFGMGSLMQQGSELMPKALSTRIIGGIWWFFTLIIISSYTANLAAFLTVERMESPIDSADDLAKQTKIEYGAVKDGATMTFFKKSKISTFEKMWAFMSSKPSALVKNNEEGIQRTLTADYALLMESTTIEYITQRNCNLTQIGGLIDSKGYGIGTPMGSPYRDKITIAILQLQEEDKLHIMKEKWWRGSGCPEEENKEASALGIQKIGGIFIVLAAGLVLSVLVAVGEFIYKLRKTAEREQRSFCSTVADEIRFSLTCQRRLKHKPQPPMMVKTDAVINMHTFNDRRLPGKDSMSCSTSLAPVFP
UniProt P13569, whole entry: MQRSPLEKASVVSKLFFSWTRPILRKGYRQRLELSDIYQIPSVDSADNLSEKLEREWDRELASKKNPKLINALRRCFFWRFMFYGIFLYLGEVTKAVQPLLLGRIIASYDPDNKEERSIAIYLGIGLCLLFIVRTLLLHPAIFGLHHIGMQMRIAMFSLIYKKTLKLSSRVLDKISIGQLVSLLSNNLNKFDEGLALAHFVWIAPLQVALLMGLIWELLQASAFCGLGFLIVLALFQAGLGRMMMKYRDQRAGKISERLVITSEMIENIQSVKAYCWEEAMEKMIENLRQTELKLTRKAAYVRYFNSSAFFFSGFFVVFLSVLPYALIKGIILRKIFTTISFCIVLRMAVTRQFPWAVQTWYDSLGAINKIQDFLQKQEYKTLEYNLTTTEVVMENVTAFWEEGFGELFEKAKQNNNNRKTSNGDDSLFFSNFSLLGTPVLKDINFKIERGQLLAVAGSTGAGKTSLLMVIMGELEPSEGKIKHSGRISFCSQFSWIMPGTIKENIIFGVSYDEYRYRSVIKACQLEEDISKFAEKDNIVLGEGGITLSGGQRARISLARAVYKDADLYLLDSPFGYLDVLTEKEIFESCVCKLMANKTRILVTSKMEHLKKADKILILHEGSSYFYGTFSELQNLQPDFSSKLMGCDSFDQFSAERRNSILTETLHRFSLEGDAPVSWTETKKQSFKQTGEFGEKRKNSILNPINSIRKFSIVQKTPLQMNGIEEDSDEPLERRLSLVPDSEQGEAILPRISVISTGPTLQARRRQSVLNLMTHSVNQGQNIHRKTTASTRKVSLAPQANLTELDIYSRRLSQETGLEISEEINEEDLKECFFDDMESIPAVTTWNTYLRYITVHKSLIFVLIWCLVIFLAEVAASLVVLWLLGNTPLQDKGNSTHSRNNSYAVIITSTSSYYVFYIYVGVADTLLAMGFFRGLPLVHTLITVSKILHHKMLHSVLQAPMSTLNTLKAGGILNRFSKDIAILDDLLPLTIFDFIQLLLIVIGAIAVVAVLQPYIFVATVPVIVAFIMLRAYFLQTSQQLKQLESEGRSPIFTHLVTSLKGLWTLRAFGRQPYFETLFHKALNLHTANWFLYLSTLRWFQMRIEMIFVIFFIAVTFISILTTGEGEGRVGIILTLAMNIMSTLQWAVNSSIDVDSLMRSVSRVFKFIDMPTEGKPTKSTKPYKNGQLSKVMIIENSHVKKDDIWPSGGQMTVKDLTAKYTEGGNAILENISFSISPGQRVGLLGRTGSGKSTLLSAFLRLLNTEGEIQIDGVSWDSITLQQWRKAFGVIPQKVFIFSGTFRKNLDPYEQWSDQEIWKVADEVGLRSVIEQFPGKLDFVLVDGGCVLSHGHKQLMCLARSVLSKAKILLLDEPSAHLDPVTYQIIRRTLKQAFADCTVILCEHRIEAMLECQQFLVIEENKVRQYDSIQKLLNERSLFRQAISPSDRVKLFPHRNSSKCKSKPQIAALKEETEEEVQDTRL
UniProt P47900, whole entry: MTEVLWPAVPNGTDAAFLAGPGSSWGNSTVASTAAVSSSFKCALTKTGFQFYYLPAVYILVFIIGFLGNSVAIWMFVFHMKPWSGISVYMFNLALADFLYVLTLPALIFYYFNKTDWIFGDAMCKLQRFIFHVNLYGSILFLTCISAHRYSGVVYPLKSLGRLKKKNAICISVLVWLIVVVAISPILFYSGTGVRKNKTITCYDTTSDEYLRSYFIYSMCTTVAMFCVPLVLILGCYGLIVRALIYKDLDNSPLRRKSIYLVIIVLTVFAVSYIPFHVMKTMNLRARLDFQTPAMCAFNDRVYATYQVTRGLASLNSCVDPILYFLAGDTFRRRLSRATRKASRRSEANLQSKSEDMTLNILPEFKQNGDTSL
UniProt P21917, whole entry: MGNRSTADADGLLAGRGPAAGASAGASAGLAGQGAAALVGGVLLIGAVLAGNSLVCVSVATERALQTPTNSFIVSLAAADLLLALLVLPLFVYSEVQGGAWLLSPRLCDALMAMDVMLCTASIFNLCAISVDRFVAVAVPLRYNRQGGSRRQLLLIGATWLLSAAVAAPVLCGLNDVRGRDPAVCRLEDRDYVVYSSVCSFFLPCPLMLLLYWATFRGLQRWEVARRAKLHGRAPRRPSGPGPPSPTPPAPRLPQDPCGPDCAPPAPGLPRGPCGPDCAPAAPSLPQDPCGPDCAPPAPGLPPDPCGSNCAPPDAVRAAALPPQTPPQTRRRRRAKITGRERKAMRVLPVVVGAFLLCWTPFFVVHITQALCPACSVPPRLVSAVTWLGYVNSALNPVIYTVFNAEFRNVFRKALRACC

Compound	target	test	system	setting	Ki
COC(=O)C1(C)C=C(C(=O)NCc2ccccc2)C(=O)CC1 (stereo not drawn)	MAPK8	D-peptide displacement, fluorescence polarization	–	–	97400 ± 24100 nM
Cc1cc(NC(=O)c2cccc(NC(=O)C3=CC(C)(C)CC3=O)c2)ccc1Nc1nccc(-c2cccnc2)n1	MAPK8	SPR two-step reversible model	–	–	10.7 nM
CN(C)c1ccc(C#CCOC(=O)[C@@]2(C)C=C(C(=O)OC(C)(C)C)C(=O)CC2)cc1	MAPK14	D-peptide displacement, fluorescence polarization	–	–	3900 ± 800 nM
COc1ccc(N2CC(=O)C(c3nc(C)cs3)=C2N)c(OC)c1	ancestral FSP1	coenzyme Q1 reduction, competitive inhibitor, NADH oxidation	–	pH 7.2, added: NADH, coenzyme Q1	446 ± 70 nM
Cc1ccc(NC(=O)c2cc3ccccc3c(N=Nc3cc(S(=O)(=O)O)ccc3O)c2O)c(C)c1	Bcl-2-related protein A1 C113S/P104K	binding, inhibitor, fluorescence polarization competition	–	added: FITC-Noxa peptide, Kd 20 nM	1380 nM
N=C(N)NCCC[C@H](NC(=O)c1cc(C(=O)O)cc([C@H]2CCN[C@@H]2C(=O)O)c1)C(=O)O	Grik2 (Rattus norvegicus, UniProt P42260)	binding, radioligand binding	Sf9 membranes	homomeric receptor, added: [3H]kainate	10000 to 50000 nM
C/C(=N\OCCN1CCc2ccccc2CC1)c1ccc(C(F)(F)F)cc1	Sigmar1	radioligand binding	rat	–	44.8 nM and 44.8 to 48.3 nM
Cc1ncsc1-c1ccc(CNC(=O)[C@@H]2C[C@@H](O)CN2C(=O)c2cccc(Br)c2)cc1	von Hippel-Lindau disease tumor suppressor, with elongin B, C (VHL, Homo sapiens, UniProt P40337)	inhibitor, fluorescence polarization	VHL-elonginB-elonginC complex	1% DMSO, added: FAM-DEALA-Hyp-YIPD peptide	19900 nM
CC(C)[C@H](NC(=O)c1cc(C(=O)O)cc([C@H]2CCN[C@@H]2C(=O)O)c1)C(=O)O	Glutamate receptor ionotropic, kainate 3 (Rattus norvegicus, UniProt P42264)	binding, radioligand binding	Sf9 membranes	homomeric receptor, added: [3H]kainate	5800 ± 540 nM
CCCCCCCCC(CCCCCCC=CCCCCCCC(CCCCCCCC)C(=O)OCC1(CO)CC(=C(C)C)C(=O)O1)C(=O)OCC1(CO)CC(=C(C)C)C(=O)O1 (racemic)	PRKCD	binding, [3H]PDBu competition	–	added: phosphatidylserine 100 µg/mL	16.6 ± 2.1 nM
CCOC(=O)N(C)C(=O)/C(C#N)=C/c1ccc(Cl)c(Cl)c1	Pick1 PDZ domain	binding, fluorescence polarization	–	added: labelled hDAT C-terminal peptide	55000 ± 13000 nM
COC(=O)[C@@]1(C)C=C(C(=O)OCc2ccccc2)C(=O)CC1	MAPK8	D-peptide displacement, fluorescence polarization	–	–	27600 ± 3900 nM
O=C(CNc1ccc2ccccc2c1)N/N=C/c1ccc(O)cc1O	CFTR (Homo sapiens, UniProt P13569)	apical chloride current, inhibitor	FRT cells expressing CFTR	basolateral membrane permeabilised	25000 to 50000 nM
CC(C)(C)OC(=O)C1=C[C@](C)(C(=O)OCC#Cc2ccncc2)CCC1=O	MAPK14	D-peptide displacement, fluorescence polarization	–	–	1800 ± 700 nM
CCOC(=O)NC(=O)/C(C#N)=C/c1ccc([N+](=O)[O-])c(Br)c1	Pick1 PDZ domain	binding, fluorescence polarization	–	added: labelled hDAT C-terminal peptide	26000 ± 2300 nM
O=C(OCc1ccccc1)c1cccc(OC2CCNCC2)c1	Glycylpeptide N-tetradecanoyltransferase (Plasmodium falciparum, UniProt Q9U419)	enzyme activity, inhibitor, CPM fluorescence	–	added: substrate 4.0 µM	> 100000 nM
O=C(O)CC[C@H](NC(=O)c1cc(C(=O)O)cc([C@H]2CCN[C@@H]2C(=O)O)c1)C(=O)O	NMDA receptor (rat)	binding, radioligand binding	rat cortical synaptosomes	added: [3H]CGP39653	830 nM
CCCCCCCCC(CCCCCCCC=CCCCCCCCC(CCCCCCCC)C(=O)OCC1(CO)CC(=C(C)C)C(=O)O1)C(=O)OCC1(CO)CC(=C(C)C)C(=O)O1 (racemic)	PRKCD	binding, [3H]PDBu competition	–	added: phosphatidylserine 100 µg/mL	27.1 nM and 27.2 nM
CCOC(=O)NC(=O)/C(C#N)=C/c1ccc(C(F)(F)F)c(F)c1	Pick1 PDZ domain	binding, fluorescence polarization	–	added: labelled hDAT C-terminal peptide	17000 ± 2700 nM
C[C@H](NC(=O)c1cc(C(=O)O)cc([C@H]2CCN[C@@H]2C(=O)O)c1)C(=O)O	NMDA receptor (rat)	binding, radioligand binding	rat cortical synaptosomes	added: [3H]CGP39653	870 nM
CCCCCCCCCCCCCC[C@@H](O)[C@@H](O)[C@H](CO[C@H]1O[C@H](CO)[C@H](O)[C@H](O)[C@H]1O)NC(=O)CCCCCCCCCCc1ccc(C(F)(F)F)cc1	Cd1d1, dimeric Ig fusion (Mus musculus, UniProt P11609)	binding, competitive microarray binding	–	added: printed glycolipid 100 µM	4400 ± 1300 nM

Compound	target	test	system	setting	Ki
COC(=O)C1(C)C=C(C(=O)Nc2ccccc2)C(=O)CC1 (stereo not drawn)	MAPK14	D-peptide displacement, fluorescence polarization	–	–	19300 ± 3100 nM
CCCCCCCCc1ccc(C2CCC([N+](C)(C)CCC)CC2)cc1 (stereo not drawn)	SPHK2 (Homo sapiens, UniProt Q9NRA0)	enzyme activity, inhibitor, radiometric flash-plate	cell lysate	added: sphingosine 5 µM	8000 ± 1000 nM
CCOc1cc(C(C)(C)C)ccc1C1=N[C@@H](c2ccc(Cl)cc2)[C@@H](c2ccc(Cl)cc2)N1C(=O)N1CCN(CC(=O)NCCOCCOCCOCCNC(=O)CN2CCN(C(=O)N3C(c4ccc(C(C)(C)C)cc4OCC)=N[C@H](c4ccc(Cl)cc4)[C@@H]3c3ccc(Cl)cc3)CC2=O)C(=O)C1	E3 ubiquitin-protein ligase Mdm2, with p53 (MDM2, Homo sapiens, UniProt Q00987)	binding, fluorescence polarization competition	–	–	120 ± 40 nM
CCCCCCCCC(CCCCCCCCC=CCCCCCCCCC(CCCCCCCC)C(=O)OCC1(CO)CC(=C(C)C)C(=O)O1)C(=O)OCC1(CO)CC(=C(C)C)C(=O)O1 (racemic)	PRKCA (Homo sapiens, UniProt P17252)	binding, [3H]PDBu competition	–	added: phosphatidylserine 100 µg/mL	30.9 ± 3.3 nM
CNc1nc(C#CCCc2cn(CCNC(C)=O)nn2)nc2c1ncn2[C@H]1C[C@H](OP(=O)(O)O)[C@]2(COP(=O)(O)O)C[C@H]12	P2Y purinoceptor 1 (P2RY1, Homo sapiens, UniProt P47900)	binding, radioligand binding	Sf9 cell membranes	30 min, 4 °C, added: iodinated P2Y1 antagonist radioligand	300 ± 200 nM
CC[N+]1=C(C=CC=CC=CC=C2N(CCCCCC(=O)NCCCC[C@H](NC(=O)N[C@@H](CCC(=O)O)C(=O)O)C(=O)O)c3ccc(S(=O)(=O)O)cc3C2(C)C)C(C)(C)c2cc(S(=O)(=O)[O-])ccc21	FOLH1	enzyme activity, inhibitor	–	compound in water, added: [3H]NAAG 30 nM	0.001 ± 0.0005 nM
Cc1cc(S(=O)(=O)O)ccc1N=Nc1c(O)ccc2ccccc12	Bcl-2-related protein A1 C113S/P104K	binding, inhibitor, fluorescence polarization	–	added: FITC-labelled Noxa peptide	2780 nM
CCCCCCCCC(CCCC=CCCCC(CCCCCCCC)C(=O)OCC1(CO)CC(=C(C)C)C(=O)O1)C(=O)OCC1(CO)CC(=C(C)C)C(=O)O1 (racemic)	PRKCD	binding, [3H]PDBu competition	–	added: phosphatidylserine 100 µg/mL	3.11 ± 0.22 nM
FC(F)(F)c1ccc2c(c1)CCC/C2=N\OCCCN1CCCCC1	Sigmar1	radioligand binding	rat	–	86.2 ± 2.04 nM
CCCCCCCCC(CCC=CCCC(CCCCCCCC)C(=O)OCC1(CO)CC(=C(C)C)C(=O)O1)C(=O)OCC1(CO)CC(=C(C)C)C(=O)O1 (racemic)	PRKCD	binding, [3H]PDBu competition	–	added: phosphatidylserine 100 µg/mL	2.67 ± 0.59 nM
COC(=O)C1(C)C=C(C(=O)NC(C)(C)C)C(=O)CC1 (stereo not drawn)	MAPK8	D-peptide displacement, fluorescence polarization	–	–	> 200000 nM
CCCc1cc2c(N3CCn4c(nnc4C(F)(F)F)C3)nc(OCCF)nc2s1 [isotope labelled]	P2Y purinoceptor 12 (P2RY12, Homo sapiens, UniProt Q9H244)	binding, antagonist, competitive displacement	human, membranes	–	4.41 ± 2.3 nM
CC(C)C[C@H](NC(=O)c1cc(C(=O)O)cc([C@H]2CCN[C@@H]2C(=O)O)c1)C(=O)O	Glutamate receptor ionotropic, kainate 1 (Rattus norvegicus, UniProt P22756)	binding, radioligand binding	Sf9 membranes	homomeric receptor, added: [3H]SYM2081	11700 ± 1400 nM
FC1CCN(c2ccc(-c3ccc4sc(-c5ccn[nH]5)cc4n3)cn2)CC1	Alpha-synuclein, PD brain aggregates (SNCA, Homo sapiens, UniProt P37840)	binding	Parkinson's disease brain homogenate	added: [3H]asyn-44 1 nM	32 nM
CCCCCCCCCCCCc1ccc(C(=O)NC2(C(=N)N)CC2)cc1	SPHK1 (Homo sapiens, UniProt Q9NYA1)	inhibitor, TLC	–	–	300 nM
COC(=O)C1(C)C=C(C(=O)Nc2cccc3cccnc23)C(=O)CC1 (stereo not drawn)	MAPK8	D-peptide displacement, fluorescence polarization	–	–	> 200000 nM
CC1(C)C(=CC=C2CCCC(C=CC3=[N+](CCCCS(=O)(=O)O)c4ccc(S(=O)(=O)O)cc4C3(C)C)=C2Oc2ccc(S(=O)(=O)O)cc2)N(CCCCCC(=O)NCCCCC(NC(=O)CCCCCCC(=O)NCCCC[C@H](NC(=O)N[C@@H](CCC(=O)O)C(=O)O)C(=O)O)C(=O)O)c2ccc(S(=O)(=O)[O-])cc21 (stereo partly drawn)	FOLH1	enzyme activity, inhibitor	–	compound in water, added: [3H]NAAG 30 nM	0.02 ± 0.005 nM
O=C(O)c1cc(C(=O)N[C@@H](Cc2c[nH]c3ccccc23)C(=O)O)cc([C@H]2CCN[C@@H]2C(=O)O)c1	NMDA receptor (rat)	binding, radioligand binding	rat cortical synaptosomes	added: [3H]CGP39653	1000 to 5000 nM
O[C@@H](c1ccc(F)cc1)C(F)(F)CCN1CCC(O)(c2ccc(Cl)cc2)CC1 (racemic)	DRD4 (Homo sapiens, UniProt P21917)	–	–	–	384 ± 58 nM
COc1cccc(-c2c(C#N)c(N)nc(SCc3ncc[nH]3)c2C#N)c1	ADORA2B (Homo sapiens, UniProt P29275)	radioligand displacement	HEK293 membranes	added: 25 nM [3H]NECA	38 ± 21 nM
CCCCC(=O)n1ncc(=O)c2ccccc21	Neutrophil elastase (ELANE, Homo sapiens, UniProt P08246)	enzyme activity, inhibitor, Dixon and Lineweaver-Burk plots	–	–	110 nM
